Measured values pooled from the literature.
Each numbered part is a random draw from the data of one study; scales do not carry over between parts.

Sample 1 — method: protein binding microarray; form: double-stranded DNA, one strand shown; sample: in vitro; tested at: not given; baseline: not given; reading: higher = stronger binding
Target: Histone acetyltransferase KAT6A, winged helix 2, GST fusion (KAT6A, Homo sapiens, UniProt Q92794, residues 85-181)
Notes: 8-mer, flanks averaged, mean of 2 arrays, mostly near background
Target sequence (chain): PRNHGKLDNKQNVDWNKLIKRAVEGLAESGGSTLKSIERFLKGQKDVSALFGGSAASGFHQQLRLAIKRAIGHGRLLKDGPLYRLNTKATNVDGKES
Strand | E-score
GACCACAA | 0.0164
TACTTATA | -0.0315
ACTAGCCT | -0.138
ATACACCC | -0.0307
CGGATAAC | 0.072
AACCAGAC | 0.01
GCAGAGCC | 0.167
GAATGTAC | -0.0961
GTGGAAGA | 0.143
AAATATTT | 0.142
CTGGCCCA | 0.15
AGAGCAGA | 0.0832
GATCTCCC | -0.0755
ATATCCTA | -0.103
CCGGTACC | -0.0312
ATTGGCGC | -0.0261
CTGGCCTC | 0.028

Sample 2 — method: RNA Bind-n-Seq; form: RNA; sample: in vitro; tested at: 200 nM; notes: whole 134-nt RNA, ends assumed; together with: 150 mM KCl; baseline: input library; reading: higher = stronger binding
Target: Fragile X messenger ribonucleoprotein 1, C-terminal low-complexity region (Fmr1, Mus musculus, UniProt P35922)
Constant ends, left off below: GGGAGUUCUACAGUCCGACGAUC … UGGAAUUCUCGGGUGUCAAGG
Strand | log2 enrichment
GCAGGCAGUAAAAACAAAUGGAAAUGCUUCGGAUAGUGGCAGGGGUGGGGGUUGCUAAGGAAAGGGUGGGAUGGGAGUGGGUAAAGAGUU | 0.62
AAGUCCUGUGCUACACAUCGUAUGUACCGAAUCGGAAAAGGAAAAGGGGAAAAGGGGAAAGUAUUAUGUUACGCCGUUCGGAUCUGCACU | -0.101
CUGUGCUACACAUCGUAUGUACCGAAUCGGGGUUUUUUUGGGGAAAAAGGGGAAAAAGGGGAAAGUAUUAUGUUACGCCGUUCGGAUCUG | -0.213
ACCAUGCAGGUGGGCAUCUUUGGGAAGUGGGGCAAGGGGGGGAUAGGGAGGGGGGUAACACUUUGGGAACAGGAAAUCCCAGGUCGUUUC | 0.416
UGCAGCAGCGCCAGGAAUCGAGGAUGGUAAAAUGACCCAGGGGAAGAAGAAGAAACGGGCCGCGAACCGCAGUAUCAUGCUGGCCAAGAA | 0.121
ACCAUCCAGGUGGGCAUCUUUGGGAAGUGGGGCAAGGGGGGGAUAGGGAGGGGGGUAACACUUUGGGAACAGGUGGUCCCAGGUCGUUUC | 0.941
UCCUGUGCUACACAUCGUAUGUACCGAAUCGGUUUUUUGGUUUUUUGGGGUUUUUUGGGAAAGUAUUAUGUUACGCCGUUCGGAUCUGCA | -0.161
CAAGUCCUGUGCUACACAUCGUAUGUACCGAAUCGGGGUUUGGGGAGGGGUGGGGAAAGUAUUAUGUUACGCCGUUCGGAUCUGCACUUC | 1.32
CAAGUCCUGUGCUACACAUCGUAUGUACCGAAUCGGCCCGGGCCCGGGGCCCGGGAAAGUAUUAUGUUACGCCGUUCGGAUCUGCACUUC | -0.68

Sample 3 — method: protein-binding microarray; form: double-stranded DNA, one strand shown; sample: in vitro; tested at: 2200 nM top; notes: 60-bp whole probe; together with: salmon DNA 0.4 mg/ml; baseline: random background probes; reading: higher = stronger binding; constant ends, left off below: GCCTAGCAC … GTCTTGATTCGCTTGACGCTGCTG
Target: Interferon regulatory factor 7, full length, phosphomimetic (IRF7, Homo sapiens, UniProt Q92985, residues 1-503, S471D/S472D/S475D/S476D/S477D/S483D/S484D/S487D)
Chain of UniProt Q92985 (whole entry, unmodified, looked up): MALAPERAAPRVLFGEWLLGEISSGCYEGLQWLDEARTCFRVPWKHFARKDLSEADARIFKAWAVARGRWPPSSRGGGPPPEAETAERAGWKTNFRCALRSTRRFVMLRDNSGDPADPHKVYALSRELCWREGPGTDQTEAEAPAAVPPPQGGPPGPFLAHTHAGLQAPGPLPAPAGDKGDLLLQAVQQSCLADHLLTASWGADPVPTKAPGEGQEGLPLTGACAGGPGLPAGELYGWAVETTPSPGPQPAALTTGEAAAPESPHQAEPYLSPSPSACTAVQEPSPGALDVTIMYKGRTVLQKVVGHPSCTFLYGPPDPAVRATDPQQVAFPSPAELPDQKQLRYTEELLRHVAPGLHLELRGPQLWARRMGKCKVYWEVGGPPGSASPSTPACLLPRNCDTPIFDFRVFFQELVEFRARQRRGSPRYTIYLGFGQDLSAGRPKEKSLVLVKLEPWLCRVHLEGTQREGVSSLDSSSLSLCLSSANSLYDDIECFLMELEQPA
Strand | fitted relative affinity [z-score]
AGGATCCAGCCTGCAACCTCGTGCTAG | -0.11
GACGGTTTCGGTTCCTGGACGTGCTAG | 12.2
GACGTACTGGACTATCGGGACGTGCTA | -0.0335
AACGGTATCGGTATCGGGACGTGCTAG | 0.566
GGGATTTTTAGTTAGAAAAAGTGCTAG | -0.723
GACGGACTGCTTCTGCTGACGTGCTAG | -0.236
GACAGACTGGGTATCGGGACGTGCTAG | -0.524
GACGATTTCAGTTCCGAGAAGTGCTAG | 1.38
AACGGACTGGACTATCGGGACGTGCTA | -0.786
GACGGTTTCGACACGGGGGACGTGCTA | 3.62
TTAAGACTGCTTTTCCTTTAGTGCTAG | 1.37
GGCGAACTGGGGACTGGAGACGTGCTA | -0.907
TTAGAACTGGGCACTGGATTAGTGCTA | -0.97
GACGGGTCCCTTTTCCTGACGTGCTAG | 0.713
TTAGATTTGGGGACTGGATTAGTGCTA | 0.167
GACGAGCTGAGTTTCGAGACGTGCTAG | 2.09
TTAGAACTGAGTCTCGATCAGTGCTAG | -0.505
TTAGGTCTCCGACTGCTTTAGTGCTAG | -0.0428
GAATGTTTTTCATTGTTTTTGTGCTAG | 1.22

Sample 4 — target: CDC34 UBC core domain (UniProt P49427); method: yeast two-hybrid; sample: yeast; notes: mostly zero background; baseline: not given; reading: higher = stronger interaction
Chain of UniProt P49427 (whole entry, looked up): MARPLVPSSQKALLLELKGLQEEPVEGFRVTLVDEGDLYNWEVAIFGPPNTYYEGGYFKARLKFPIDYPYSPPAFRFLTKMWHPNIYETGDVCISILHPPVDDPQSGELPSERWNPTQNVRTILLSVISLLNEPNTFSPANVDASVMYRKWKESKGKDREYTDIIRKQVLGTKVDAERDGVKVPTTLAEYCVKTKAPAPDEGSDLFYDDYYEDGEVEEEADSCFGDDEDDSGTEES
B1: PJA2 RING domain (UniProt O43164); chain DHTAIGQEQCCPICCSEYIKDDIATELPCHHFFHKPCVSIWLQKSGTCPVCRRHFPPAVIEA
B2: SHPRH RING domain (UniProt Q149N8); chain KTSGGVNPEPCPICARQLGKQWAVLTCGHCFCNECISIIIEQYSVGSHRSSIKCAICRQTTSHKEISY
B3: RFPL3 RING domain (UniProt O75679); chain MAALFQEASSCPVCSDYLEKPMSLECGCTVCLKCINSLQKEPHGEDLLCCCCSMVSQRNKIRP
B4: CBLL1 RING domain (UniProt Q75N03); chain GEKDDTPVHFCDKCGLPIKIYGRMIPCKHVFCYDCAILHEKKGDKMCPGCSDPVQRIEQCT
B5: ARIH1 RING domain (UniProt Q9Y4X5); chain NTRSSAQDMPCQICYLNYPNSYFTGLECGHKFCMQCWSEYLTTKIMEEGMGQTISCPAHGCDILVDDNTVM
B6: RNF130 RING domain (UniProt Q86XS8); chain DKETDPDFDHCAVCIESYKQNDVVRILPCKHVFHKSCVDPWLSEHCTCPMCKLNILKALGIV
B7: RNF115 RING domain (UniProt Q9Y4L5); chain TQEQVDMGLECPVCKEDYTVEEEVRQLPCNHFFHSSCIVPWLELHDTCPVCRKSLNGEDSTR
B8: RNF17 RING domain (UniProt Q9BXT8); chain SQPWGAAEIQCTRCGRRVSRSSGHHCELQCGHAFCELCLLMTEECTTIICPDCEVATAVNTRQR
Sequence | lacZ reporter activity
B1 (PJA2 RING domain) | 0
GSEEEEIPFRCFICRQAFQNPVVTKCRHYFCESCALEHFRATPRCYICDQPTGGIFNPA (RNF113B RING domain (UniProt Q8IZP6)) | 0
AAQLLEEKLTCAICLGLYQDPVTLPCGHNFCGACIRDWWDRCGKACPECREPFPDGAELR (TRIM65 RING domain (UniProt Q6PJ69)) | 0
B2 (SHPRH RING domain) | 0
B3 (RFPL3 RING domain) | 0
B4 (CBLL1 RING domain) | 0
KITELNPHLMCALCGGYFIDATTIVECLHSFCKTCIVRYLETNKYCPMCDVQVHKTRPLL (PCGF2 RING domain (UniProt P35227)) | 0
B5 (ARIH1 RING domain) | 0
B6 (RNF130 RING domain) | 0
B7 (RNF115 RING domain) | 0
B8 (RNF17 RING domain) | 0
SNNDLASLFECPVCFDYVLPPILQCQSGHLVCSNCRPKLTCCPTCRGPLGSIRNLA (SIAH1 RING domain (UniProt Q8IUQ4)) | 0
VPADASPDSKCPICLDRFDNVSYLDRCLHKFCFRCVQEWSKNKAECPLCKQPFDSIFHSV (TOPORS RING domain (UniProt Q9NS56)) | 0

For quick reference, copied from above (sample 2):
Strand | log2 enrichment
GCAGGCAGUAAAAACAAAUGGAAAUGCUUCGGAUAGUGGCAGGGGUGGGGGUUGCUAAGGAAAGGGUGGGAUGGGAGUGGGUAAAGAGUU | 0.62
AAGUCCUGUGCUACACAUCGUAUGUACCGAAUCGGAAAAGGAAAAGGGGAAAAGGGGAAAGUAUUAUGUUACGCCGUUCGGAUCUGCACU | -0.101
CUGUGCUACACAUCGUAUGUACCGAAUCGGGGUUUUUUUGGGGAAAAAGGGGAAAAAGGGGAAAGUAUUAUGUUACGCCGUUCGGAUCUG | -0.213
ACCAUGCAGGUGGGCAUCUUUGGGAAGUGGGGCAAGGGGGGGAUAGGGAGGGGGGUAACACUUUGGGAACAGGAAAUCCCAGGUCGUUUC | 0.416
UGCAGCAGCGCCAGGAAUCGAGGAUGGUAAAAUGACCCAGGGGAAGAAGAAGAAACGGGCCGCGAACCGCAGUAUCAUGCUGGCCAAGAA | 0.121
ACCAUCCAGGUGGGCAUCUUUGGGAAGUGGGGCAAGGGGGGGAUAGGGAGGGGGGUAACACUUUGGGAACAGGUGGUCCCAGGUCGUUUC | 0.941
UCCUGUGCUACACAUCGUAUGUACCGAAUCGGUUUUUUGGUUUUUUGGGGUUUUUUGGGAAAGUAUUAUGUUACGCCGUUCGGAUCUGCA | -0.161
CAAGUCCUGUGCUACACAUCGUAUGUACCGAAUCGGGGUUUGGGGAGGGGUGGGGAAAGUAUUAUGUUACGCCGUUCGGAUCUGCACUUC | 1.32
CAAGUCCUGUGCUACACAUCGUAUGUACCGAAUCGGCCCGGGCCCGGGGCCCGGGAAAGUAUUAUGUUACGCCGUUCGGAUCUGCACUUC | -0.68
